Measurements collected from several papers.
Lines come from different studies, so protocols differ.
ADRA2B: Alpha-2B adrenergic receptor (ADRA2B, Homo sapiens, UniProt P18089)
Chain of UniProt P18089 (whole entry, looked up): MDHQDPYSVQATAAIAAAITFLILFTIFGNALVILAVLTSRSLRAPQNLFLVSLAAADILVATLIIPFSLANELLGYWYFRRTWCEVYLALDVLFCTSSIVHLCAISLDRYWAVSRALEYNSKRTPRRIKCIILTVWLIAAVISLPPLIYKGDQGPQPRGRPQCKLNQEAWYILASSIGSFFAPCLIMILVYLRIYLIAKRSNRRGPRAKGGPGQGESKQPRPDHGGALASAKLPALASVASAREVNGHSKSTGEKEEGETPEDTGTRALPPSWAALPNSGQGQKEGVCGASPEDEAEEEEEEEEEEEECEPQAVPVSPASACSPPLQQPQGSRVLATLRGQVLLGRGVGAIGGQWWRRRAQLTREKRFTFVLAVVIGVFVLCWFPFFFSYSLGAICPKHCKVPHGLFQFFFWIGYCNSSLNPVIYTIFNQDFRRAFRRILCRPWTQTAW
DRD3: D(3) dopamine receptor (DRD3, Homo sapiens, UniProt P35462)
Chain of UniProt P35462 (whole entry, looked up): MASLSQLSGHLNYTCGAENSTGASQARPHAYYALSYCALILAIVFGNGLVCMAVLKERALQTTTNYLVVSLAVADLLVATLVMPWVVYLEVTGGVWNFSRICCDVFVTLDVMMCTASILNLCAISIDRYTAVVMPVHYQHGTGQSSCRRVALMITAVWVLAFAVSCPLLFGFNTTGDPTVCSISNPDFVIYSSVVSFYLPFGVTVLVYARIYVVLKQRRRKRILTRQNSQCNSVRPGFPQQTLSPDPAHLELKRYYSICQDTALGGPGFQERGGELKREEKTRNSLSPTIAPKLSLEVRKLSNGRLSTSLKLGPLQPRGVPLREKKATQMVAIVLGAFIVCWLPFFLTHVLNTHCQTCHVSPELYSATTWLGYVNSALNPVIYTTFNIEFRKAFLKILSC
HDAC6: Protein deacetylase HDAC6 (HDAC6, Homo sapiens, UniProt Q9UBN7)
Chain of UniProt Q9UBN7 (whole entry, looked up): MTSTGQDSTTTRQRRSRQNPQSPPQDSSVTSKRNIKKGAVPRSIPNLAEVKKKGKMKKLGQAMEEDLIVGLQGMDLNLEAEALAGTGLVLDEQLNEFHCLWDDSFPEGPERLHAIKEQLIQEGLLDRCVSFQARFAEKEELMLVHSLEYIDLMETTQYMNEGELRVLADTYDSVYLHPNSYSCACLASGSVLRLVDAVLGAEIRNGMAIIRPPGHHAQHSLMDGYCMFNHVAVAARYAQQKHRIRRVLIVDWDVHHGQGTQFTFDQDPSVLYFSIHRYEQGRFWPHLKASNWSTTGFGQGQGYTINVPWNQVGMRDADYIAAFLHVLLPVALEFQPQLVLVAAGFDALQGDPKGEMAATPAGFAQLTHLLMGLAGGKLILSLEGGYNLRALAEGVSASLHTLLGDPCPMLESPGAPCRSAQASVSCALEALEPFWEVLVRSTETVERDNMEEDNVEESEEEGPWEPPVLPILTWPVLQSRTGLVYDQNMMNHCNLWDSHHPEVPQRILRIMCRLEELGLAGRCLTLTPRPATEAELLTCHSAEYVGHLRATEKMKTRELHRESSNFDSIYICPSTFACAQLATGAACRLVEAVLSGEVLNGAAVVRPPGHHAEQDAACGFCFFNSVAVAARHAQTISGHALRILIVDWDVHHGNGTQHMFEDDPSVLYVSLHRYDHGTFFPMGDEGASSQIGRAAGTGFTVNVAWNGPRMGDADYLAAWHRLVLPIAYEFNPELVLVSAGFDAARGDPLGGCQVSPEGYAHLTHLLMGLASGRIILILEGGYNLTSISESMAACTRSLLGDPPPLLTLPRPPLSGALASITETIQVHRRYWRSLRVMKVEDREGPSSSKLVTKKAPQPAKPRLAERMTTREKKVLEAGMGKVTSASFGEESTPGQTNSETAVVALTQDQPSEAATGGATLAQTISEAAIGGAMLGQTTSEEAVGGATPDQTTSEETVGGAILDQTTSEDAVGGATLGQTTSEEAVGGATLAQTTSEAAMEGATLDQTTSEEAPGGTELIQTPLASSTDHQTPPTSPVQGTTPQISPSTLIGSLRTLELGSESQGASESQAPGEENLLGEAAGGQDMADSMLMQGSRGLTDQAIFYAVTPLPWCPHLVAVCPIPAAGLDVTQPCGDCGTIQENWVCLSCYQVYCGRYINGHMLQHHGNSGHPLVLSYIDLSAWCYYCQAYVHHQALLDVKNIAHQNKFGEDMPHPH
HDAC8: Histone deacetylase 8 (HDAC8, Homo sapiens, UniProt Q9BY41)
Chain of UniProt Q9BY41 (whole entry, looked up): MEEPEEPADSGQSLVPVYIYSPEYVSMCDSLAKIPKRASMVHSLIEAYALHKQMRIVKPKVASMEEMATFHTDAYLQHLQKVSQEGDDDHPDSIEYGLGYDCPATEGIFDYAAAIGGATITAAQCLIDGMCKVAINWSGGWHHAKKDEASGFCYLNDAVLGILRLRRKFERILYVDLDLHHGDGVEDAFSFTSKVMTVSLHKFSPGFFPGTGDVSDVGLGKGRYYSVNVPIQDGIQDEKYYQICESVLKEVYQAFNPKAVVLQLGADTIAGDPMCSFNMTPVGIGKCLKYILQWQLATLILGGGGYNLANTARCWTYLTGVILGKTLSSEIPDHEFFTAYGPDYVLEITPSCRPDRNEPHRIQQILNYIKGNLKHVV
ADRA2C: Alpha-2C adrenergic receptor (ADRA2C, Homo sapiens, UniProt P18825)
Chain of UniProt P18825 (whole entry, looked up): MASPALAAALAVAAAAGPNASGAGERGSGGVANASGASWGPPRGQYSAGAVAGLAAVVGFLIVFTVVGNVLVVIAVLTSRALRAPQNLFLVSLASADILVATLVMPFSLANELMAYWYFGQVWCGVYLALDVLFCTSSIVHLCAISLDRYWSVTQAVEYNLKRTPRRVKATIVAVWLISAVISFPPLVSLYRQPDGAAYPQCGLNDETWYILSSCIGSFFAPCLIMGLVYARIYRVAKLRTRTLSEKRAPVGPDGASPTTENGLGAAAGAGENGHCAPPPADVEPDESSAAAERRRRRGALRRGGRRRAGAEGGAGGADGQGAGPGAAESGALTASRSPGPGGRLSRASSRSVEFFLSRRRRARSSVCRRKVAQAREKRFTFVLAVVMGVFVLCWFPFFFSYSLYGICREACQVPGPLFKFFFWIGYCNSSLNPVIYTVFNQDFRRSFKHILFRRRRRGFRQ
HDAC1: Histone deacetylase 1 (HDAC1, Homo sapiens, UniProt Q13547)
Chain of UniProt Q13547 (whole entry, looked up): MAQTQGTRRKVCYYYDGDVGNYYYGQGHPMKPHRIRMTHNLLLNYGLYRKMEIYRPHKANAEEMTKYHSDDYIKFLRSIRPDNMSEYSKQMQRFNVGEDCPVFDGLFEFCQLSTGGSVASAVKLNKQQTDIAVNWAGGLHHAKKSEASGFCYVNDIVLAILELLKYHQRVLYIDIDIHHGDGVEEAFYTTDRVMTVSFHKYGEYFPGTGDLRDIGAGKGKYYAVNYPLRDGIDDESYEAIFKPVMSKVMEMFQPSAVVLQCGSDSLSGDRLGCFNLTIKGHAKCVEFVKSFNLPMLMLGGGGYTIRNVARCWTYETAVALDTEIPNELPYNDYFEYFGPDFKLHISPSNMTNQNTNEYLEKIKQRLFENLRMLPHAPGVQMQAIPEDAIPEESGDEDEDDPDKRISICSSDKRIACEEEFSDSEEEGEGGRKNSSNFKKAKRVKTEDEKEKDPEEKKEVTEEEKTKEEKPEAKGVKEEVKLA
Chain of UniProt P00519 (whole entry, unmodified, looked up): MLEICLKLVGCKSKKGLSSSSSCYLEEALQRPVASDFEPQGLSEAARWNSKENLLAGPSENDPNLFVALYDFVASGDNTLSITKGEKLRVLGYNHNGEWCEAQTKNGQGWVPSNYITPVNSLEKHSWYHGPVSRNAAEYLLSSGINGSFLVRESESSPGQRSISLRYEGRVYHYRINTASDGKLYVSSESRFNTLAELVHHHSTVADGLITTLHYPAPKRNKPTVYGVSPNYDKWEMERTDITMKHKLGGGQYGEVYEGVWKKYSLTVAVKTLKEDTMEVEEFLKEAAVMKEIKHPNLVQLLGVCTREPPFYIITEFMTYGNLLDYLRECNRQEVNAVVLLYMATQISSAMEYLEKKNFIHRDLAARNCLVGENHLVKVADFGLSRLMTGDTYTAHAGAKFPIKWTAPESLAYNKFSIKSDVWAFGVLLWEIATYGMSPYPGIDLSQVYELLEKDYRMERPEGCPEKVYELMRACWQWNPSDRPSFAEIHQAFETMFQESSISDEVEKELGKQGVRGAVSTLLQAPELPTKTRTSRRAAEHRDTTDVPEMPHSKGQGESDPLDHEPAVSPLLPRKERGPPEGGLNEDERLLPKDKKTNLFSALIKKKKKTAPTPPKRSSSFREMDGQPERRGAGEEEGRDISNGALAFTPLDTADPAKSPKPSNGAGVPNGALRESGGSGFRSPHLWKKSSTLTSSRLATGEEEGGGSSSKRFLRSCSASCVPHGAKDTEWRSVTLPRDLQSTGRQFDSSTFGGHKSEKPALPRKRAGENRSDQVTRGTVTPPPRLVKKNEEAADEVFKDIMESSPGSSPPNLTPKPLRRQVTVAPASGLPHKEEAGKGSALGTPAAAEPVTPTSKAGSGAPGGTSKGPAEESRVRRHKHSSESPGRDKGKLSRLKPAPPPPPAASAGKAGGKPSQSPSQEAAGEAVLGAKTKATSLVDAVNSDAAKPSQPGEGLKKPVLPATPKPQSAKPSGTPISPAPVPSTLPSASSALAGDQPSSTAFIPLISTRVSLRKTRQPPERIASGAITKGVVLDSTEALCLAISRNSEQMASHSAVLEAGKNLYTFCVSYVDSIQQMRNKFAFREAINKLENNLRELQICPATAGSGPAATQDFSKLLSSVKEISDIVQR
Chain of UniProt P0DMS8 (whole entry, unmodified, looked up): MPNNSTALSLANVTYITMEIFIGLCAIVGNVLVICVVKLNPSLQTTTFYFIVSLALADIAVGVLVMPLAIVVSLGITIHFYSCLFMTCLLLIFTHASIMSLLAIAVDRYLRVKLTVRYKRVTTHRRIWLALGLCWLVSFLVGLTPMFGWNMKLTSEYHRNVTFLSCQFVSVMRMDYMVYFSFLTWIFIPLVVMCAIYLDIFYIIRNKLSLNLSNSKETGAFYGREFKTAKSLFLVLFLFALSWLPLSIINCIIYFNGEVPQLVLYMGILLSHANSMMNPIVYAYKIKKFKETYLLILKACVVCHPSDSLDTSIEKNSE

Compound | tested on | test | system | conditions | quantity | result
C=CC(=O)N1CCC(COCC(=O)N2CCN(c3nc(-c4cnc(N)nc4C(F)F)nc(N4CCOC[C@@H]4C)n3)CC2)CC1 | RAC-alpha serine/threonine-protein kinase (AKT1, Homo sapiens, UniProt P31749) | binding, competition with immobilised ligand | – | 1 µM | remaining binding | 100%
Cc1cc(Oc2ncccc2CN2CCN(c3cccc4ccccc34)CC2)ccc1-c1c(C)c(=O)[nH]c(=O)n1C | ADRA2B | ligand displacement, radioligand | – | – | Ki | 130 nM
Cc1[nH]cc(S(=O)(=O)Nc2ccc(C(F)(F)F)c(Cl)c2)c1C(=O)N(C)C | DRD3 | β-arrestin recruitment, antagonist | – | – | IC50 | > 50 µM
COc1cc(-c2cncc3c2CN(C)Cc2cc(N4CCNCC4)ccc2-3)cc(OC)c1OC | LIM domain kinase 2 (LIMK2, Homo sapiens, UniProt P53671) | enzyme activity, inhibitor | – | 1 µM | remaining activity | 109%
Cc1cc(Oc2ncccc2CN2CCN(c3ccccc3C#N)CC2)ccc1-c1c(C)c(=O)[nH]c(=O)n1C | ADRA2B | ligand displacement, radioligand | – | – | Ki | 206 nM
CCCCC(=O)Nc1ccc(-c2ccc3ncn(CCC)c(=O)c3c2)cn1 | Tyrosine-protein kinase ABL1, phosphorylated (ABL1, Homo sapiens, UniProt P00519, H396P) | binding, competition with immobilised ligand | – | 0.5 µM | remaining binding | 91%
CN(Cc1ccc(C(C)(C)C)cc1)Cc1cccc2ccccc12 | Trichophyton rubrum | microbial growth, disc diffusion | ATCC28188 | 0.256 µg/mL, 6 days | inhibition zone | ≥ 55 mm
CN(C)c1ncnc2c1ncn2[C@@H]1O[C@H](CO)[C@@H](O)[C@H]1O | Adenosine receptor A3 (ADORA3, Homo sapiens, UniProt P0DMS8, V169A) | G protein activation, agonist | – | – | EC50 | 2400 nM
O=C(NO)c1cccc(OS(=O)(=O)Oc2ccc3c(c2)OCO3)c1 | HDAC6 | enzyme activity, inhibitor, fluorescence | – | – | Ki | 45 nM
Cc1[nH]c(C)c(S(=O)(=O)Nc2ccc(Cl)c(Cl)c2)c1C(=O)N1CCC(F)(F)C1 | DRD3 | β-arrestin recruitment, antagonist | – | – | IC50 | 5.5 µM
Cc1cc(Oc2ncccc2CN2CCN(c3cccc(Cl)c3)CC2)ccc1-c1c(C)c(=O)[nH]c(=O)n1C | ADRA2B | ligand displacement, radioligand | – | – | Ki | 124 nM
Cc1cccc(N(O)N=Nc2ccc(S(=O)(=O)Nc3nccs3)cc2)c1 | – | ABTS scavenging | – | 60 µg/mL | inhibition | 45.8%
O=C(NO)c1cncc(OS(=O)(=O)Oc2ccc3ccccc3c2)c1 | Histone deacetylase 5 (HDAC5, Homo sapiens, UniProt Q9UQL6) | enzyme activity, inhibitor, fluorescence | – | – | Ki | 2700 nM
CNc1ncc2c(/C=C/C(=O)N3CCC(OC)CC3)nn(Cc3cccc(C(F)(F)F)c3)c2n1 | Activated CDC42 kinase 1 (TNK2, Homo sapiens, UniProt Q07912) | enzyme activity, inhibitor, radiometric | – | 1 µM | remaining activity | 94%
[2H]C1([2H])CCC([2H])([2H])N1C(=O)c1c(C)[nH]c(C)c1S(=O)(=O)Nc1ccc(C(F)(F)F)c(Cl)c1 | DRD3 | G protein activation, antagonist, BRET | – | – | IC50 | 2.2 µM
CC(C)c1cccc(OS(=O)(=O)Oc2cc(F)cc(C(=O)NO)c2)c1 | HDAC8 | enzyme activity, inhibitor, fluorescence | – | – | IC50 | 3.54 µM
Cc1cc(Oc2ncccc2CN2CCN(c3cc(Cl)cc(Cl)c3)CC2)ccc1-c1c(C)c(=O)[nH]c(=O)n1C | ADRA2B | ligand displacement, radioligand | – | – | Ki | 804 nM

Compound | tested on | test | system | conditions | quantity | result
Cc1cc([C@@H](C)Nc2ccccc2C(=O)O)c2nc(N3CCC(F)(F)CC3)c(C#N)c(=O)n2c1 | Rho-associated protein kinase 2 (ROCK2, Homo sapiens, UniProt O75116) | binding, competition with immobilised ligand | – | 10 µM | remaining binding | 100%
Cc1cc(Oc2ncccc2CN2CCN(c3ncccc3C(F)(F)F)CC2)ccc1-c1c(C)c(=O)[nH]c(=O)n1C | ADRA2C | ligand displacement, radioligand | – | – | Ki | 7.4 nM
O=C(NO)c1cncc(OS(=O)(=O)Oc2ccc(-n3ccnc3)cc2)c1 | HDAC1 | enzyme activity, inhibitor, fluorescence | – | – | Ki | 213 nM
Cc1cc(Oc2ncccc2CN2CCN(c3cccc(Cl)c3Cl)CC2)ccc1-c1c(C)c(=O)[nH]c(=O)n1C | ADRA2C | ligand displacement, radioligand | – | – | Ki | 22.4 nM
O=C(NO)c1cc(F)cc(OS(=O)(=O)Oc2ccc(Oc3ccccc3)cc2)c1 | HDAC8 | enzyme activity, inhibitor, fluorescence | – | – | Ki | 3830 nM
CCN(O)N=Nc1ccc(S(=O)(=O)Nc2nccs2)cc1 | – | ABTS scavenging | – | 60 µg/mL | inhibition | 25.7%
Cc1[nH]c(C)c(S(=O)(=O)Nc2ccc(C(F)(F)F)c(Cl)c2)c1C(=O)N1CC[C@H](F)C1 | DRD3 | G protein activation, antagonist, BRET | – | – | IC50 | 2.6 µM
Cc1cc(Oc2ncccc2CN2CCN(c3ccccn3)CC2)ccc1-c1c(C)c(=O)[nH]c(=O)n1C | ADRA2C | ligand displacement, radioligand | – | – | Ki | 30.3 nM
Cc1[nH]c(C)c(S(=O)(=O)Nc2ccc(C(F)(F)F)c(Cl)c2)c1C(=O)N1CCC(=O)C1 | DRD3 | G protein activation, antagonist, BRET | – | – | IC50 | 5.6 µM
CN(Cc1ccc(C2(C(F)(F)F)CC2)cc1)Cc1cccc2ccccc12 | Trichophyton rubrum | microbial growth, disc diffusion | ATCC28188 | 0.016 µg/mL, 6 days | inhibition zone | 43.5 mm
Cc1[nH]c(C)c(S(=O)(=O)Nc2ccc(C(F)(F)F)c(Cl)c2)c1C(=O)N(C)C | DRD3 | G protein activation, antagonist, BRET | – | – | IC50 | 12 µM
Cc1cc(OS(=O)(=O)Oc2ccc(-n3ccnc3)cc2)cc(C(=O)NO)c1 | HDAC6 | enzyme activity, inhibitor, fluorescence | – | – | Ki | 2110 nM
Cc1[nH]c(C)c(S(=O)(=O)Nc2ccc(C(F)(F)F)c(Cl)c2)c1C(=O)N1CCC(F)(F)C1 | DRD3 | G protein activation, antagonist, BRET | – | – | IC50 | 0.34 µM
Cc1cc(Oc2ncccc2CN2CCN(c3ccccc3C(F)(F)F)CC2)ccc1-c1c(C)c(=O)[nH]c(=O)n1C | Alpha-1A adrenergic receptor (ADRA1A, Homo sapiens, UniProt P35348) | ligand displacement, radioligand | – | – | Ki | 1520 nM
Cc1[nH]c(C)c(S(=O)(=O)Nc2cc(Cl)c(Cl)cc2Cl)c1C(=O)N1CCC(F)(F)C1 | DRD3 | β-arrestin recruitment, antagonist | – | – | IC50 | 6.8 µM
COc1ccc(OS(=O)(=O)Oc2cccc(C(=O)NO)c2)cc1OC | HDAC1 | enzyme activity, inhibitor, fluorescence | – | – | Ki | 504 nM
